Measured values gathered from unrelated publications.
Protocols differ between the studies behind these lines. “And” joins repeats or separate records; there may be more than shown. Numbers after ± are the reported error.
CYP3A7: Cytochrome P450 3A7 (CYP3A7, Homo sapiens, UniProt P24462)
BCHE: Cholinesterase (BCHE, Homo sapiens, UniProt P06276)

C[C@H](NC(=O)[C@H](Cc1cnc[nH]1)NC(=O)[C@H](CO)NC(=O)[C@@H](N)CC(=O)O)C(=O)N[C@@H](CCCCN)C(=O)N[C@@H](CCCNC(=N)N)C(=O)N[C@@H](Cc1cnc[nH]1)C(=O)N[C@@H](Cc1cnc[nH]1)C(=O)NCC(=O)N[C@@H](Cc1ccc(O)cc1)C(=O)N[C@@H](CCCCN)C(=O)N[C@@H](CCCNC(=N)N)C(=O)N[C@@H](CCCCN)C(=O)N[C@@H](Cc1ccccc1)C(=O)N[C@@H](Cc1cnc[nH]1)C(=O)N[C@@H](CCC(=O)O)C(=O)N[C@@H](CCCCN)C(=O)N[C@@H](Cc1cnc[nH]1)C(=O)N[C@@H](Cc1cnc[nH]1)C(=O)N[C@@H](CO)C(=O)N[C@@H](Cc1cnc[nH]1)C(=O)N[C@@H](CCCNC(=N)N)C(=O)NCC(=O)N[C@@H](Cc1ccc(O)cc1)C(=O)O — intact peptide remaining (Secreted aspartic protease 3 (SAP3, Candida albicans, UniProt P0CY29); proteolytic degradation, gel densitometry; 150 µg/mL, 2 h, pH 7.4, added: SAP3 1.6 µg/mL): 43.3%
CC1(C)C(/C=C(\Cl)C(F)(F)F)C1C(=O)OC(C#N)c1cccc(Oc2ccccc2)c1 (stereo not shown) — relative enzyme contribution (human cytosolic CES1; IVIVE from expressed enzymes; human, 5 years old; relative to: total hepatic CLint in vivo): 38.4%
O=S(=O)(O)C(F)(F)C(F)(F)C(F)(F)C(F)(F)C(F)(F)C(F)(F)F — Hill coefficient (CYP3A7; type I binding spectrum; pH 7.4, second binding event): 1.25
C[C@H]1CN(c2n[nH]c3nc(N[C@H]4CC[C@H](NS(=O)(=O)CCC(F)(F)F)CC4)ncc23)CCO1 — relative abundance (PKN1 (Homo sapiens, UniProt Q16512); inhibitor, Kinobeads competition profiling; 0.16 µM; relative to: vehicle): 0.99
Cn1nccc1[C@]1(CNC(=O)c2ccc(F)c(F)c2-c2ccc(C(F)(F)F)cc2)NC(=O)NC1=O — highest concentration without inhibition (SCN5A (Homo sapiens, UniProt Q14524); inhibitor; human cells): > 10 µM
Cc1cc2nc3c(=O)[nH]c(=O)nc-3n(C[C@H](O)[C@H](O)[C@H](O)COP(=O)(O)O)c2cc1C — midpoint potential (nfsB (Escherichia coli K-12, UniProt P38489, K14R); bound cofactor redox, redox titration; pH 7.0, 25 °C, anaerobic): -193 ± 4 mV
Fc1ccc(C(OCCCc2c[nH]cn2)c2ccc(F)cc2)cc1 — IC50 (Plasmodium falciparum; Dd2): 10 µM
CC1(C)[C@H](C(=O)OCc2cccc(Oc3ccccc3)c2)[C@@H]1C=C(Cl)Cl — relative enzyme contribution (human cytosolic CES1; IVIVE from expressed enzymes; human, 5 years old, expressed human CES1; 0.1 µM; relative to: total hepatic CLint in vivo): 31.7%
CN(C)c1ccc(O)c2c1C[C@H]1C[C@H]3[C@H](N(C)C)C(O)=C(C(N)=O)C(=O)[C@@]3(O)C(O)=C1C2=O — IC50 (Plasmodium falciparum; GB4): 5.01 µM
CC(=O)O[C@@H]1C[C@@]23C[C@@]24CC[C@H](O[C@@H]2OC[C@@H](O)[C@H](O)[C@H]2O)C(C)(C)[C@@H]4CC[C@H]3[C@]2(C)C[C@@H]3O[C@@]4(C[C@@H](C)[C@@H]3[C@@]12C)OC[C@@]1(C)O[C@@H]41 — reporter gene activity (Nr1i2 (Mus musculus, UniProt O54915); luciferase reporter, activator; HepG2 transfected with mouse PXR; 50 µM; relative to: vehicle): increased
O=C(O)C(F)(F)C(F)(F)C(F)(F)C(F)(F)C(F)(F)C(F)(F)C(F)(F)F — CLint (SLC22A8 (Homo sapiens, UniProt Q8TCC7); uptake, substrate; HEK293 cells stably expressing SLC22A8, HBSS with HEPES; pH 7.4): 7.12 ± 1.51 µL/min/mg
CCCC[C@H](NC(C)=O)C(=O)N[C@@H](CO)C(=O)N[C@H](C(=O)N1CCC[C@H]1C(=O)N[C@@H](C)C(=O)N[C@@H](CCCNC(=N)N)C(=O)N[C@@H](CCCNC(=N)N)C(=O)N[C@@H](CCCNC(=N)N)C(=O)N[C@@H](CC(C)C)C(=O)N[C@@H](CCCC)C(=O)N[C@@H](CCCNC(=N)N)C(=O)N[C@@H](CC(=O)O)C(=O)N[C@@H](Cc1ccccc1)C(=O)N[C@@H](CCCCN)C(=O)N[C@@H](CCCNC(=N)N)C(=O)N[C@@H](CC(C)C)C(=O)N[C@@H](CCC(N)=O)C(N)=O)[C@@H](C)O — remaining intact peptide (Proteinase K (PROK, Engyodontium album, UniProt P06873); proteolytic stability, LC-MS; 25 µM, 41.0 min, pH 7.4): 16%
O=S(=O)(O)C(F)(F)C(F)(F)C(F)(F)C(F)(F)C(F)(F)C(F)(F)C(F)(F)C(F)(F)F — inhibition (CYP3A7; enzyme activity, inhibitor; 10 µM, added: dibenzylfluorescein 0.15 µM; relative to: DMSO): 35.1 ± 2.99%
CC(C)CC(=O)OC[C@H]1O[C@@](C#N)(c2ccc3c(N)ncnn23)[C@H](O)[C@@H]1O — Papp B to A (ABCB1 (Homo sapiens, UniProt P08183); Caco-2; 0.9 µM, added: zosuquidar 25 µM): 0.471 ×10⁻⁶ cm/s
O[C@@](Cc1ncc(CC2(C(F)(F)F)CC2)[nH]1)(c1ccc(-n2cccn2)cc1)C(F)(F)F — IC50 (BCHE; inhibitor, fluorometric): 8.68 ± 3.77 µM
O=C(O)COc1nn(Cc2ccccc2)c2ccccc12 — IC50 (ABCB11 (Homo sapiens, UniProt O95342); bile salt transport, inhibitor): > 100 µM
CC(C)=CC1C(C(=O)OC(C#N)c2cccc(Oc3ccccc3)c2)C1(C)C (stereo not shown) — relative enzyme contribution (human cytosolic CES1; IVIVE from expressed enzymes; human, 6 months old; relative to: total hepatic CLint in vivo): 30.1%
O=C1NCc2c1c1c3ccccc3[nH]c1c1[nH]c3ccccc3c21 — IC50 (BCHE; inhibitor, fluorometric): 10.6 ± 4.32 µM
CC1(C)C(C=C(Cl)Cl)C1C(=O)OC(C#N)c1ccc(F)c(Oc2ccccc2)c1 (stereo not shown) — relative enzyme contribution (human microsomal CES2; IVIVE from expressed enzymes; human, 6 months old, expressed human CES2; 0.1 µM; relative to: total hepatic CLint in vivo): 0.21%
CO[C@H]1C[C@@H]2CC[C@@H](C)[C@@](O)(O2)C(=O)C(=O)N2CCCC[C@H]2C(=O)O[C@H]([C@H](C)C[C@@H]2CC[C@@H](OC(=O)NCCOCCOCCOCCOCCOCCOCCOCCOCCC(=O)N3CCc4cc(Cn5nc(-c6ccc7oc(N)nc7c6)c6c(N)ncnc65)ccc4C3)[C@H](OC)C2)C[C@@H](O)[C@H](C)/C=C(\C)[C@@H](O)[C@@H](OC)C(=O)[C@H](C)C[C@H](C)/C=C/C=C/C=C/1C — TRAE incidence (phase 1 dose escalation, item: diarrhoea; advanced solid tumour patients; intravenous, 12 mg weekly, grade ≥3): 0%
CC(C)[C@H](C(=O)O[C@H](C#N)c1cccc(Oc2ccccc2)c1)c1ccc(Cl)cc1 — relative enzyme contribution (human cytosolic CES1; IVIVE from expressed enzymes; human, 5 years old; relative to: total hepatic CLint in vivo): 29.1%
O=S(=O)(NCCNC/C=C/c1ccc(Br)cc1)c1cccc2cnccc12 — dead embryos (PKA; inhibitor; mouse zygotes; 20 µM, injection, hCG, 120 h post, early embryonic development): 26.3% and 30% and 17.6%

Some of these lines once more:
CO[C@H]1C[C@@H]2CC[C@@H](C)[C@@](O)(O2)C(=O)C(=O)N2CCCC[C@H]2C(=O)O[C@H]([C@H](C)C[C@@H]2CC[C@@H](OC(=O)NCCOCCOCCOCCOCCOCCOCCOCCOCCC(=O)N3CCc4cc(Cn5nc(-c6ccc7oc(N)nc7c6)c6c(N)ncnc65)ccc4C3)[C@H](OC)C2)C[C@@H](O)[C@H](C)/C=C(\C)[C@@H](O)[C@@H](OC)C(=O)[C@H](C)C[C@H](C)/C=C/C=C/C=C/1C — TRAE incidence (phase 1 dose escalation, item: diarrhoea; advanced solid tumour patients; intravenous, 12 mg weekly, grade ≥3): 0%
CC(C)CC(=O)OC[C@H]1O[C@@](C#N)(c2ccc3c(N)ncnn23)[C@H](O)[C@@H]1O — Papp B to A (ABCB1 (Homo sapiens, UniProt P08183); Caco-2; 0.9 µM, added: zosuquidar 25 µM): 0.471 ×10⁻⁶ cm/s
O=S(=O)(O)C(F)(F)C(F)(F)C(F)(F)C(F)(F)C(F)(F)C(F)(F)F — Hill coefficient (CYP3A7; type I binding spectrum; pH 7.4, second binding event): 1.25
